Measured values collected from several papers.
“And” joins repeats or separate records; there may be more than shown. ± gives the spread as reported.

| Substance | tested on | test | system | conditions | quantity | value |
| --- | --- | --- | --- | --- | --- | --- |
| C#Cc1cc2ccccc2c2ccccc12 | Cytochrome P450 1B1 (CYP1B1, Homo sapiens, UniProt Q16678) | binding, fluorescence |  | pH 7.4 | Kd | < 2.5 µM and 1.6 µM |
| c1c[nH]cn1 | Cytochrome c oxidase subunit 2 (cbaB, Thermus thermophilus, UniProt Q5SJ80, N150T/Q151P/del152-156/Q158P/N159F) | UV-Vis absorption titration |  | pH 7.0, 298 K, Cu(II) form | Kd | 2910 ± 50 µM |
| Nc1nc2c(ncn2[C@@H]2O[C@H](COP(=O)(O)OP(=O)(O)OP(=O)(O)O)[C@@H](O)[C@H]2O)c(=O)[nH]1 | GMP reductase (GMPR, Leishmania major, UniProt Q4QEB3) | binding, fluorescence titration |  | second site, no NADPH | Kd | 369 ± 18 µM |
| [Co+2] | methionine aminopeptidase (Acinetobacter baumannii, UniProt V5VCW7) | metal binding, activator, activity titration | ATCC 17978 | divalent metal ion Kd, added: Met-AMC substrate | Kd | 0.39 µM |
| NC(=O)c1cccnc1 | kptA (Runella slithyformis, UniProt A0A7U3ZK32) | isothermal titration calorimetry |  | 17 °C | Kd | no binding |
| CC1=C(/C=C/C(C)=C/C=C/C(C)=C/C=C/C=C(C)/C=C/C=C(C)/C=C/C2=C(C)CCCC2(C)C)C(C)(C)CCC1 | Beta-lactoglobulin (LGB, Bos taurus, UniProt P02754) | binding |  |  | Kd | 2.27 ± 0.03 µM |
| N=C(N)c1ccc(NCCCCCNc2ccc(C(=N)N)cc2)cc1 | CTG·CAG repeat hairpin DNA | fluorescence titration |  | 11 CTG·CAG repeats | Kd | 4.3 ± 1 µM |
| TAMRA-ATP | mutS (Escherichia coli, UniProt P23909, D693V) | fluorescence anisotropy |  | room temperature, no DNA | Kd | 20.7 ± 1.6 µM |
| CC(C)[C@H](NC(=O)[C@H](CC(N)=O)NC(=O)CNC(=O)[C@H](CC(=O)O)NC(=O)[C@H](CCCNC(=N)N)NC(=O)[C@H](CC(N)=O)NC(=O)[C@@H](N)CC(=O)O)C(=O)N[C@@H](Cc1ccc(O)cc1)C(=O)N[C@@H](Cc1ccc(O)cc1)C(=O)N[C@@H](Cc1ccccc1)C(=O)O | Serine endoprotease DegS (degS, Escherichia coli, UniProt P0AEE3, D320A) |  |  |  | Kd | 0.2 µM |
| CO[C@H](C/C=C\C=C\CC/C=C/C[C@H](C)/C=C/C(=C\C(=O)O)CC(=O)O)/C(C)=C\C=C(/C)C(=O)O | SLC25A4 (Homo sapiens, UniProt P12235) | binding, SPR |  |  | Kd | 19.3 µM |
| Fluorescein-12-ATP | Maintenance of carboxysome distribution protein A (mcdA, Gloeothece citriformis, UniProt B7KMS4, D38A/K151A) | fluorescence polarization |  | pH 7.5, 25 °C, D38A mutant | Kd | 3.6 ± 0.5 µM |
| CN[C@@](C)(C[18F])C(=O)O |  |  | SCID mouse SK-OV-3 xenograft, muscle | 15 min, post injection | tissue uptake | 0.9 ± 0.2 %ID/g |
| NC(=O)c1ccc[n+]([C@@H]2O[C@H](COP(=O)([O-])OP(=O)(O)OC[C@H]3O[C@@H](n4cnc5c(N)ncnc54)[C@H](O)[C@@H]3O)[C@@H](O)[C@H]2O)c1 | L-ornithine N(5)-monooxygenase (Neosartorya fumigata, UniProt E9QYP0) | fluorescence polarization displacement |  | pH 7.0, added: 30 nM fluorescent probe | Kd | 70 ± 20 µM |
| phosphatidylinositol 4-phosphate | PFE0165w (Plasmodium falciparum, UniProt Q8I467) | tryptophan fluorescence | Plasmodium falciparum, POPC vesicles 10% phosphoinositide | 25 °C | Kd | 47 µM |

A few entries again:
| Substance | tested on | test | system | conditions | quantity | value |
| --- | --- | --- | --- | --- | --- | --- |
| phosphatidylinositol 4-phosphate | PFE0165w (Plasmodium falciparum, UniProt Q8I467) | tryptophan fluorescence | Plasmodium falciparum, POPC vesicles 10% phosphoinositide | 25 °C | Kd | 47 µM |
